# Measured values gathered from unrelated publications.
# Every numbered part comes from another study and shows a few of its results, in no order. Substitutions count along the parent as printed.

# Set 1
# Target: RNA binding protein fox-1 homolog 2, RRM domain, GST-SBP tag (RBFOX2, Homo sapiens, UniProt O43251-10, residues 100-194)
# Technique: RNA Bind-n-Seq
# Molecule type: RNA
# Matrix: in vitro
# Concentration: 365 nM
# Notes: natural RNA segment, single round, ends assumed
# Baseline: no-protein control
# Direction: higher = stronger binding
# Construct (chain): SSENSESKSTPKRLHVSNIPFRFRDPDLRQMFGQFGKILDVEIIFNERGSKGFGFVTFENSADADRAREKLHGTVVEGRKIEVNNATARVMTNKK
Strand,RBNS enrichment (R)
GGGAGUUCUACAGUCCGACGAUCAAAAAAUAAGUUCCACAAGAUGGACAAAAAUGGUCCAUGAUAUUUAGCUUAAAUUGUAACCUUUUGUUGUGUAUAUAAAACUUCCUUGGAAGAAAAUAACCUUAUUGUUUUGGAAUUCUCGGGUGCCAA,0.724
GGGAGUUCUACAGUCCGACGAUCAAUGCGAGAGCCCCUGGGCCGGUGGCUCUCGGGGGCUGGUCCAUGGGCGGCUGUGGCGUCAGGAUGGAGUCCUAGCUGUGACCUGUGCCCAGGAGGGCGUGAUCCGAGUGUGGAAUUCUCGGGUGCCAA,0.406
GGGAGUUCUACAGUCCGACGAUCUUAACCUACACAUAGUCUAUACAUAGAUGCAUAUUUUACCCCCAGCUGGCUAGAGAUUUAUUUGUUGUAAAUGCUGUAUAGAUUUGGUUUUCCUUUCUUUACUUACCCUGUGGAAUUCUCGGGUGCCAA,0.746
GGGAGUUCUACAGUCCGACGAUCGACUUACAUUCCCAGUGUGCCUGCCAGCUGCAAUGAGGACUCUAAACUCAAGUAGAACAAAUCCCUUCUUGGUCUUCUGGGACCACUAGAGGUCACCGUGUCCAGUCCUUUGGAAUUCUCGGGUGCCAA,0.541
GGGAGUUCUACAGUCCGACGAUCAUCUGCAGUCUUUUGUUAUUUCUGCAGGCUACACCCUUAAUUUGCAGAGGCCAUUUUGUUGUUUGUUUGAUGCUGAAGCUGUUGUUAAAAUGCCCCAAACUCCAAGGCAGUGGAAUUCUCGGGUGCCAA,0.835
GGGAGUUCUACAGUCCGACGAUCUCUGAGUUUGAAUCCUUGCUCUCUAGGAUGCAGGUGGCUUGAAGCAGAAUGCCACACCUGCAAGUUGAUUAGAACUGCCUUUCUUCCCAGGCUUGACAUAGGUAUUAAGUUGGAAUUCUCGGGUGCCAA,4.35
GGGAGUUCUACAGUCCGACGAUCUGAGCUGGAUAGACUUGGGAUGGGGAGGGAGGGAGUUUUGUCUGUCUCCCUCCCCUCUCAGAACAUACUGAUUGGGAGGUGCGUGUUCAGCAGAACCUGCACACAGGACAUGGAAUUCUCGGGUGCCAA,0.187
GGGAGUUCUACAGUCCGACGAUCAGAAAGAUUGGAAGCAGCUGCUGCCGCUACCGCCAACCAAAUCUUGCCAAUCCUGUCCCUGAAGCAGGGGGAGGCACAGAUUGUCCGUGGGAGUGAGUCAGUGUCUGGGAUGGAAUUCUCGGGUGCCAA,0.242

# Set 2
# Target: Centromere-binding protein 1, full length, N-terminal tag (CBF1, Saccharomyces cerevisiae, UniProt P17106, residues 1-351)
# UniProt P17106, sequence (whole entry, looked up): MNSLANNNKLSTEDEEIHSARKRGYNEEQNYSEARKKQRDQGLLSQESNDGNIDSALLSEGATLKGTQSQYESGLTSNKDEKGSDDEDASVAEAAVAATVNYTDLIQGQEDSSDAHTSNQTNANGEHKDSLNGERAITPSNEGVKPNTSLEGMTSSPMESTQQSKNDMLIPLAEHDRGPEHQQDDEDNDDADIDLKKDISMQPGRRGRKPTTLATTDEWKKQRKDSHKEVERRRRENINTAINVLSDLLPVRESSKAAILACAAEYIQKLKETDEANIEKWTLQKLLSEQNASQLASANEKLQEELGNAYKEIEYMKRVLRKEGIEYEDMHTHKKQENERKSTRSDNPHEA
# Technique: protein-binding microarray
# Molecule type: double-stranded DNA, one strand shown
# Matrix: in vitro
# Concentration: 0.8 µM
# Notes: whole 60-bp probe, no competitor
# Direction: higher = stronger binding
Strand,fluorescence intensity [a.u.]
GAAAATGTTGTTCGTGGTGAAATAGAAACTTTTTAGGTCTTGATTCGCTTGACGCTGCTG,545
CTATTCTTTACGAGCCACGGGGCTGCTATTTCATTCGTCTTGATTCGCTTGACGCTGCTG,751
GAAAAAGTATACAACTACGTGGCTAAAAATTTTTAGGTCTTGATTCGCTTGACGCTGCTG,496
CTAGGGGTGGTTCAGGTGGTTATTTGGTAATAATTCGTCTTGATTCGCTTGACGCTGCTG,531
GAATATTATTCCAACCATCATGTGTAAGCCAAATAGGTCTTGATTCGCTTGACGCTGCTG,712
GAACTTTTTATGGCTCATCAGACTGACACCCTGTAGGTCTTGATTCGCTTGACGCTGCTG,553
GAAGGGTCCTACTGATGACGGGCTGGCAAACGGTAGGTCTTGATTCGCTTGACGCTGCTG,498
CTATCATCATGCACTCATGTGCCCGCGCGCGCGTTCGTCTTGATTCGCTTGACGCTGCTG,726
CCTAACTACTATAAGTTAGTCACATAGCTTCGTACAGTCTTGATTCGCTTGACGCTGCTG,543
CTAACCAGCGCCCATCACGATACCTTAAATAGTTTCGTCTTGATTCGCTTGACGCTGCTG,944
GAAATACTTTTAAAAGACCTGATGATGATAAATTAGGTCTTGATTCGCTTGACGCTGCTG,629
CTAACGCTTTTACTTCACCCCATCTTATACTATTTCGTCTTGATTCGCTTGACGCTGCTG,559
CTAGAAATTTCACGTGATGTAATCTGATGAAGGTTCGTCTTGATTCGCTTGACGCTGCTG,10700

# Set 3
# Target: Sal-like protein 4, full length isoform A (SALL4, Homo sapiens, UniProt Q9UJQ4, residues 1-1053)
# UniProt Q9UJQ4, sequence (whole entry, looked up): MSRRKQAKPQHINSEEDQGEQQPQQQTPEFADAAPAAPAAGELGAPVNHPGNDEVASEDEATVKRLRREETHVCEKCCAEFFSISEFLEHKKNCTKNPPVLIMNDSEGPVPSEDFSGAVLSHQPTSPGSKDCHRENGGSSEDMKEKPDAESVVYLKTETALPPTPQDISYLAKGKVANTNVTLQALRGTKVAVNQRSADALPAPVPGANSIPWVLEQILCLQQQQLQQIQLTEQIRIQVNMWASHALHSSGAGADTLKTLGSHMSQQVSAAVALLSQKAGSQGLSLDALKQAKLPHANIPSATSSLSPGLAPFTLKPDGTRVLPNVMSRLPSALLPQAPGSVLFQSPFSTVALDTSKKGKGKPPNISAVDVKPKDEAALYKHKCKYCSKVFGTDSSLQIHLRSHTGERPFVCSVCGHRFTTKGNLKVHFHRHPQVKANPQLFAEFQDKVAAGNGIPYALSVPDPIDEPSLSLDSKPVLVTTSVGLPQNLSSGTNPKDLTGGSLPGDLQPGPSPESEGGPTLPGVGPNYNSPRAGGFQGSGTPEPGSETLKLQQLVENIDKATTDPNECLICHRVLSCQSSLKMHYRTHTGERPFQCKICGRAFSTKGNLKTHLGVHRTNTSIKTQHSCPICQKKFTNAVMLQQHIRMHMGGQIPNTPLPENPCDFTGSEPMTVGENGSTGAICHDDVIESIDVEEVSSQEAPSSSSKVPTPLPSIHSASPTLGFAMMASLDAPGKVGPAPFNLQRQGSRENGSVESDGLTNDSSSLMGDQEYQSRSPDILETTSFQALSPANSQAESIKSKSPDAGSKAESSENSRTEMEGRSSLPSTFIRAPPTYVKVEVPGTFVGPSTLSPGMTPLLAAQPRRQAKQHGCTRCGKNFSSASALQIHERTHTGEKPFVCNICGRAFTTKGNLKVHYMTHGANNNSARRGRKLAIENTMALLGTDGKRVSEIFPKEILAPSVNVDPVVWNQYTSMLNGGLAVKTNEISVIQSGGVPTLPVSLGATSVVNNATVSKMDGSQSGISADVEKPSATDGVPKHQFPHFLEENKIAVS
# Technique: universal PBM
# Molecule type: double-stranded DNA, one strand shown
# Matrix: in vitro
# Concentration: 600 nM
# Notes: 8-mer, flanks averaged, mean of replicates
# Direction: higher = stronger binding
Strand,E-score
GAGGACAA,-0.0362
AACACCGC,-0.247
GTCTCAAA,0.0326
GGATAAGA,-0.0209
CTTTAGAA,0.208
CCTGTTAC,0.18
AGCCAGTC,-0.145
CGAAGCTA,0.0346
AGGCCCTA,-0.21
AAGCAGTA,0.0345
AAAGTTCA,0.144
AAGCGGAG,-0.231
AAACTGTT,0.249
AAGATGGG,-0.0467
GCTGACTA,-0.16
GATTAAAA,0.353
ACTTAAGC,0.0836
CGTAGCCC,-0.25
CTCTTGGC,-0.173
CGGGGCCC,-0.361
AGACTCCC,-0.212
CAGTAATA,0.366
CTCCCGAA,-0.11
AGGTTCGC,-0.22
CAATGAGC,-0.166

# Set 4
# Target: ABI1, truncated, D143A, DHFR fusion (Arabidopsis thaliana)
# Technique: DHFR PCA, deep sequencing
# Matrix: yeast
# Notes: methotrexate growth selection, single substitutions
# Together with: (+)-ABA 58 µM
# Baseline: wild-type fitted maximum
# Direction: higher = stronger binding
# Parent: PYL1, truncated, DHFR fusion (Arabidopsis thaliana); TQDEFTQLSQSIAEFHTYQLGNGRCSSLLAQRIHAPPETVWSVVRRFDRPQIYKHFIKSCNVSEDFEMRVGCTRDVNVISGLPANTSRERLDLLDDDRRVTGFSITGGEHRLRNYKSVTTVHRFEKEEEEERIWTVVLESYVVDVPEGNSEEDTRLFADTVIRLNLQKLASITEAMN; partner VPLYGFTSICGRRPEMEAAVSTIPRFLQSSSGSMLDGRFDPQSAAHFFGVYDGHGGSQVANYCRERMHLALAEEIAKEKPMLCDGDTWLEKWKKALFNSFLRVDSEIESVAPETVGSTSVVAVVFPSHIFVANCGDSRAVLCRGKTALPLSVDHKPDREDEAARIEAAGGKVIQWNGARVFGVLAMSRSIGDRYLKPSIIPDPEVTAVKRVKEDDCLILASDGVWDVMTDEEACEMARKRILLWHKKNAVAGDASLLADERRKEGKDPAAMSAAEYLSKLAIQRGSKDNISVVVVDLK
Change,relative binding score [%]
K116N,52.9
L94G,-2.52
Q167R,90.4
L28M,93.4
H16Q,22.2
V136W,76.8
N114P,-12.6
V137S,0.697
S171N,82.7
E4K,71.4
C72H,65.5
N177D,102
R88M,70.1
R111I,14.9
V62F,62.7
G107K,44.3
Q51S,46.6
S26D,38.3

# Excerpt of the above (set 2):
Strand,fluorescence intensity [a.u.]
GAAAATGTTGTTCGTGGTGAAATAGAAACTTTTTAGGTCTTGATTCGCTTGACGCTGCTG,545
CTATTCTTTACGAGCCACGGGGCTGCTATTTCATTCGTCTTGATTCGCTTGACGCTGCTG,751
GAAAAAGTATACAACTACGTGGCTAAAAATTTTTAGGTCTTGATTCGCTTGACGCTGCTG,496
CTAGGGGTGGTTCAGGTGGTTATTTGGTAATAATTCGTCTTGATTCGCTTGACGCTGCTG,531
GAATATTATTCCAACCATCATGTGTAAGCCAAATAGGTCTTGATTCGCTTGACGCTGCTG,712
GAACTTTTTATGGCTCATCAGACTGACACCCTGTAGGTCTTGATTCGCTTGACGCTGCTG,553
GAAGGGTCCTACTGATGACGGGCTGGCAAACGGTAGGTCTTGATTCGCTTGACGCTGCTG,498
CTATCATCATGCACTCATGTGCCCGCGCGCGCGTTCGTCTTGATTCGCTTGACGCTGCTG,726
